Measured values of several laboratories.
Each line is one published result; not all experiments were run side by side. Numbers after ± are the reported error.
B1: Cacna1c 1647-1777 (Mus musculus, UniProt Q01815); sequence looked up; chain NALSLQAGLRTLHDIGPEIRRAISGDLTAEEELDKAMKEAVSAASEDDIFRRAGGLFGNHVTYYQSDSRGNFPQTFATQRPLHINKTGNNQADTESPSHEKLVDSTFTPSSYSSTGSNANINNANNTALGR
B2: RAP1A (Homo sapiens, UniProt P62834); sequence looked up; chain MREYKLVVLGSGGVGKSALTVQFVQGIFVEKYDPTIEDSYRKQVEVDCQQCMLEILDTAGTEQFTAMRDLYMKNGQGFALVYSITAQSTFNDLQDLREQILRVKDTEDVPMILVGNKCDLEDERVVGKEQGQNLARQWCNCAFLESSAKSKINVNEIFYDLVRQINRKTPVEKKKPKKKSCLLL
B3: TWF1 (Saccharomyces cerevisiae, UniProt P53250); SNAP-Surface-549 label; chain MSTQSGIVAEQALLHSLNENLSADGIVIIIAKISPDSTSVHQTQVARSFEELVQLASQEREPLYIFYKPEGLDKYFFVSFIPDGSPVRSRMLYASTKNTLARQVGSNSLSTEQPLITDAQDLVDLKNFDSARPAGQNKPLTHDEEMQIEINKQQALLRKNTSVKLVSQDSASPLSLTFRVNSEKPINEILDSEGKNLIIFQIDPSNETIQIVQSDTCPSVDELYIDLPGPSYTIFRQGDSSFFIYSCPSGSKVKDRMIYASNKNGFINYLKNDQKIAFSKVVEIGDFVELDKSLLMATNKEDSLDHGSNPDLPNKSNLKFNKPKGPLRKRRT
B4: PIK3R1 1-79 (Homo sapiens, UniProt P27986); chain MSAEGYQYRALYDYKKEREEDIDLHLGDILTVNKGSLVALGFSDGQEARPEEIGWLNGYNETTGERGDFPGTYVEYIGR
B5: Bcl2l11 (Mus musculus, UniProt O54918-2); chain MAKQPSDVSSECDREGGQLQPAERPPQLRPGAPTSLQTEPQDRSPAPMSCDKSTQTPSPPCQAFNHYLSAMASIRQSQEEPEDLRPEIRIAQELRRIGDEFNETYTRRVFANDYREAEDHPQMVILQLLRFIFRLVWRRH

Molecule | tested on | test | system | conditions | how to read | quantity | result
PMESGICTIV | human MAGI1-2/6 PDZ construct (MBP fusion) | automated holdup | peptide, crude extract | concentration not given, corrected by standard peak, unit not given | reference: biotin control resin, higher = stronger binding | binding intensity | -0.0679
B1 (Cacna1c 1647-1777) | Jph2 1-440 S165G (Mus musculus, UniProt Q9ET78) | ITC | – | – | – | Kd | 6.55 µM
B2 (RAP1A) | PREX1 (Homo sapiens, UniProt Q8TCU6) | fluorescence titration | – | together with: mant-GDP 1 µM | – | Kd | 88 ± 8 µM
ENAH EVH1 domain (Homo sapiens) | DSCAM peptide (Homo sapiens) | BLI | – | – | – | Kd | > 150 µM
colistin | Acinetobacter baumannii | broth microdilution | clinical isolate RKI-No_230/15 | – | – | MIC | ≤ 0.5 µg/mL
PSPFTPPPPQTPSP (SOS1 proline-rich peptide, 1253-1266) | GRB2 1-58 (Homo sapiens, UniProt P62993) | NMR titration | peptide | – | – | Kd | 580 µM
Lama1 fragment (Mus musculus) | DAG1 alpha-dystroglycan (Oryctolagus cuniculus, UniProt Q28685) | ELISA | – | – | – | Kd | 0.034 µM
QDEKVKESYV | human MAGI1-2/6 PDZ construct (MBP fusion) | automated holdup | peptide, crude extract | concentration not given, corrected by standard peak, unit not given | reference: biotin control resin, higher = stronger binding | binding intensity | 0.079
SCN2A fragment Q1913R (Homo sapiens) (sequence not shown) | CALM1 (Homo sapiens, UniProt P0DP23) | fluorescence titration | – | together with: CaCl2 | – | Kd | 2.07 µM
B3 (TWF1) | ACTA1 F-actin filaments, Alexa-488 label (Oryctolagus cuniculus, UniProt P68135) | single-molecule TIRF | – | – | – | Kd | 0.128 ± 0.021 µM
GGLQWIPRA | Jurkat T cells expressing 1G4 TCR | NFAT-eGFP reporter, fluorescence microscopy | peptide | concentration not given, HLA-A*02:01 NY-ESO system | – | reporter activation | 0.0126%
B4 (PIK3R1 1-79) | PIK3R1 80-724 (Homo sapiens, UniProt P27986) | ITC | – | – | – | Kd | 22.3 ± 2.5 µM
GCVRLHESCLGQQVPCCDPAATCYCEGRGDRDMKCYCR (designed binder) | ITGAV/ITGB3 K562 cells | flow cytometry | designed binder, U87MG | – | – | Kd | 0.016 µM
B5 (Bcl2l11) | BCL2 (Homo sapiens, UniProt P10415) | FRET or BRET | – | not purified | – | Kd | 4 µM
NEDIDQMFSTLLGEMDLLTQS (RIAM talin-binding site peptide 5-25 (Mus musculus, UniProt Q8R5A3); FITC label; sequence looked up) | Tln1 1-405 (Mus musculus, UniProt P26039) | fluorescence polarization | peptide | together with: FITC-labeled peptide 20 nM | – | Kd | 86 µM

Excerpt of the above:
Molecule | tested on | test | system | conditions | how to read | quantity | result
B1 (Cacna1c 1647-1777) | Jph2 1-440 S165G (Mus musculus, UniProt Q9ET78) | ITC | – | – | – | Kd | 6.55 µM
B2 (RAP1A) | PREX1 (Homo sapiens, UniProt Q8TCU6) | fluorescence titration | – | together with: mant-GDP 1 µM | – | Kd | 88 ± 8 µM
